Results of several laboratories.
Each line is one published result; not all experiments were run side by side. ± marks the error that the study gave.

SMILES	system	conditions	tissue uptake [%ID/g]
CC(C)C[C@H](NC(=O)[C@H](Cc1ccc(O)cc1)NC(=O)[C@@H](CCCNC(=N)N)NC(=O)[C@@H](CO)NC(=O)[C@H](Cc1ccccc1)NC(=O)[C@H](CC1CCCCC1)NC(=O)[C@H](CC(=O)O)NC(=O)CCC(C(=O)O)N1CCCN2CCN(CCCN(CC(=O)O)CC2)CC1)C(=O)N[C@@H](Cc1c[nH]c2ccccc12)C(=O)N[C@@H](CO)C(=O)O (stereo partly drawn) [copper-64 labelled]	female NMRI nude mice, blood	1 h p.i.	2 ± 0.3
CCCC[C@H](NC(=O)CNC(=O)CNC(=O)c1ccc(NN)nc1)C(=O)N[C@H]1CC(=O)NCCCC[C@@H](C(N)=O)NC(=O)[C@H](Cc2c[nH]c3ccccc23)NC(=O)[C@H](CCCNC(=N)N)NC(=O)[C@@H](Cc2ccccc2)NC(=O)[C@H](Cc2c[nH]cn2)NC1=O [technetium-99m labelled]	C57 mouse, B16/F1 melanoma-bearing, heart	intravenous, 4 h	0.05 ± 0.04
CCCC[C@H](NC(=O)CCCCCCCNC(=O)c1ccc(NN)nc1)C(=O)N[C@H]1CC(=O)NCCCC[C@@H](C(N)=O)NC(=O)[C@H](Cc2c[nH]c3ccccc23)NC(=O)[C@H](CCCNC(=N)N)NC(=O)[C@@H](Cc2ccccc2)NC(=O)[C@H](Cc2c[nH]cn2)NC1=O [technetium-99m labelled]	C57 mouse, B16/F1 melanoma, brain	2 h, together with: NDP-MSH 10 µg (6.07 nmol) co-injected	0.03 ± 0.01
N=C(N)NCCC[C@@H]1NC(=O)[C@H](CCCCNC(=O)CCOCCOCCOCCOCCNC(=O)CN2CCN(CC(=O)O)CCN(CC(=O)O)CCN(CC(=O)O)CC2)NC(=O)[C@@H](Cc2ccccc2)NC(=O)[C@H](CC(=O)O)NC(=O)CNC1=O [indium-111 labelled]	female athymic nude mice, muscle	intravenous, 3 µCi, 4 h, U-87 MG glioma xenograft	0.27 ± 0.03
CSCC[C@H](NC(=O)[C@H](CC(C)C)NC(=O)[C@H](Cc1c[nH]cn1)NC(=O)CNC(=O)[C@@H](NC(=O)[C@H](C)NC(=O)[C@H](Cc1c[nH]c2ccccc12)NC(=O)[C@H](CCC(N)=O)NC(=O)CNC(=O)[C@H](CO)NC(=O)CNC(=O)CCCCCCCNC(=O)CCC(=O)Nc1ccc(CNC23CNCCNCC(N)(CNCCNC2)CNCCNC3)cc1)C(C)C)C(N)=O [copper-64 labelled]	female SCID mice, PC-3 xenograft, liver	intravenous, 0.6 MBq, 24 h	2.82 ± 0.274
N=C(N)NCCC[C@@H]1NC(=O)[C@H](CCCCNC(=O)CCOCCOCCOCCOCCNC(=O)CC[C@H](NC(=O)CCOCCOCCOCCOCCNC(=O)CC[C@H](NC(=O)CN2CCN(CC(=O)O)CCN(CC(=O)O)CCN(CC(=O)O)CC2)C(=O)NCCOCCOCCOCCOCCC(=O)N[C@@H](CCC(=O)NCCOCCOCCOCCOCCC(=O)NCCCC[C@@H]2NC(=O)[C@@H](Cc3ccccc3)NC(=O)[C@H](CC(=O)O)NC(=O)CNC(=O)[C@H](CCCNC(=N)N)NC2=O)C(=O)NCCOCCOCCOCCOCCC(=O)NCCCC[C@@H]2NC(=O)[C@@H](Cc3ccccc3)NC(=O)[C@H](CC(=O)O)NC(=O)CNC(=O)[C@H](CCCNC(=N)N)NC2=O)C(=O)NCCOCCOCCOCCOCCC(=O)NCCCC[C@@H]2NC(=O)[C@@H](Cc3ccccc3)NC(=O)[C@H](CC(=O)O)NC(=O)CNC(=O)[C@H](CCCNC(=N)N)NC2=O)NC(=O)[C@@H](Cc2ccccc2)NC(=O)[C@H](CC(=O)O)NC(=O)CNC1=O [indium-111 labelled]	female athymic nude mice, liver	intravenous, 3 µCi, 1 h, U-87 MG glioma xenograft	4
CSCC[C@H](NC(=O)[C@H](CC(C)C)NC(=O)[C@H](Cc1c[nH]cn1)NC(=O)CNC(=O)[C@@H](NC(=O)[C@H](C)NC(=O)[C@H](Cc1c[nH]c2ccccc12)NC(=O)[C@H](CCC(N)=O)NC(=O)CCCCCNC(=O)CNC(=O)CNC(=O)CNC(=O)CSC(C)=O)C(C)C)C(N)=O [technetium-99m labelled]	nude mouse, PC-3 xenograft, lung	30 min, together with: excess unlabelled conjugate	1.4 ± 0.23
N=C(N)NCCC[C@@H]1NC(=O)[C@H](CCCCNC(=O)CC[C@H](NC(=O)CCOCCOCCOCCOCCNC(=O)CN2CCN(CC(=O)O)CCN(CC(=O)O)CCN(CC(=O)O)CC2)C(=O)NCCCC[C@@H]2NC(=O)[C@@H](Cc3ccccc3)NC(=O)[C@H](CC(=O)O)NC(=O)CNC(=O)[C@H](CCCNC(=N)N)NC2=O)NC(=O)[C@@H](Cc2ccccc2)NC(=O)[C@H](CC(=O)O)NC(=O)CNC1=O [indium-111 labelled]	athymic nude mice, female, U-87 MG glioma xenograft, U-87 MG tumour	intravenous, 3 µCi, 4 h	4.79 ± 0.61
N=C(N)NCCC[C@@H]1NC(=O)[C@H](CCCCNC(=O)CNC(=O)CNC(=O)CNC(=O)CC[C@H](NC(=O)c2ccc(NN=Cc3ccccc3S(=O)(=O)O)nc2)C(=O)NCC(=O)NCC(=O)NCC(=O)NCCCC[C@@H]2NC(=O)[C@@H](Cc3ccccc3)NC(=O)[C@H](CC(=O)O)NC(=O)CNC(=O)[C@H](CCCNC(=N)N)NC2=O)NC(=O)[C@@H](Cc2ccccc2)NC(=O)[C@H](CC(=O)O)NC(=O)CNC1=O [technetium-99m labelled]	athymic nu/nu mouse, female, MDA-MB-435 xenograft, muscle	intravenous, 120 min	1.6 ± 0.32

Repeated from above:
SMILES	system	conditions	tissue uptake [%ID/g]
CC(C)C[C@H](NC(=O)[C@H](Cc1ccc(O)cc1)NC(=O)[C@@H](CCCNC(=N)N)NC(=O)[C@@H](CO)NC(=O)[C@H](Cc1ccccc1)NC(=O)[C@H](CC1CCCCC1)NC(=O)[C@H](CC(=O)O)NC(=O)CCC(C(=O)O)N1CCCN2CCN(CCCN(CC(=O)O)CC2)CC1)C(=O)N[C@@H](Cc1c[nH]c2ccccc12)C(=O)N[C@@H](CO)C(=O)O (stereo partly drawn) [copper-64 labelled]	female NMRI nude mice, blood	1 h p.i.	2 ± 0.3
